Measured values pooled from the literature.
Target: Insulin receptor-related protein (INSRR, Homo sapiens, UniProt P14616)

Structure (SMILES) | test | conditions | how to read | endpoint | value
C=CC(=O)Nc1cccc(-c2cnc3[nH]cc(C(=O)NC(C)(C)C)c3n2)c1 | enzyme activity, inhibitor | 0.1 µM | – | inhibition | 1%
CN1CC[C@@H](COc2cnc(C#N)cc2-c2ccn3nc(NC(=O)C4CC4)cc3c2)C1 | enzyme activity, inhibitor | 1 µM | – | inhibition | -5%
Cc1cccc(O[C@H]2CCC[C@@H](C(C)CNCc3ccncc3)C2)c1 (relative stereo) | cell-free assay | 10 µM | – | inhibition | 3%
Cc1cccc(-c2ccc3nc(NC(=O)C4CCCO4)nn3c2)c1 (centres unmarked) | enzyme activity, Dundee kinase panel | 10 µM | – | remaining activity | 50%
COc1cc(Nc2nccc(-c3cnn4nc(OC)ccc34)n2)cc(C(F)(F)F)c1 | binding, competition with immobilised ligand | 1 µM | – | remaining binding | 95%
CCN1CCN(Cc2ccc(C(=O)Nc3ccc(C)c(NCc4cnc5[nH]ccc5c4OC)c3)cc2C(F)(F)F)CC1 | binding, competition with immobilised ligand | 1 µM | – | remaining binding | 85%
NC(=O)C[C@H]1CCc2sc3ncnc(O[C@H]4CC[C@H](N5CCOCC5)CC4)c3c21 | enzyme activity, inhibitor | 10 µM | – | inhibition | 21%
C=CC(=O)N1Cc2nc(-c3cc(-c4cc(Cl)cnc4Cl)c(F)cc3F)n(-c3ccncn3)c2C1 | cell-free assay | 1 µM | – | inhibition | 4.9%
O=C(Cc1ccc(OCc2ccccc2)cc1)NC1(C(=O)O)CCN(C(=O)c2ccc(-c3cccc(Cl)c3)cc2)CC1 | enzyme activity, inhibitor | 10 µM | – | activity vs control | 113%
Cc1cccc(-c2ccc3nc(NC(=O)C4CCCCC4)nn3c2)c1 | enzyme activity, Dundee kinase panel | 10 µM | – | remaining activity | 11%
CCn1cc(C(=O)O)c(=O)c2c(N)c(F)c(NC3CCCCC3)cc21 | kinase activity | 0.1 µM, together with: ATP at Km | – | inhibition | 20.2%
CN1CCN(Cc2ccc(-c3ccc(CO[C@H]4CCC[C@@H]4NC(=O)c4cc(-c5cnn(C)c5)cnc4N)cc3)cc2)CC1 | enzyme activity, inhibitor | 0.1 µM | – | inhibition | 8%
CNC(=O)C1CCN(c2cc(C)c(F)cc2NC(=O)c2ccc(-c3cc(O)ccc3C)c(C)c2)CC1 | binding, competition with immobilised ligand | 1 µM | – | remaining binding | 100%
O=C=[N][Ru-4]123([n]4c5ccc(O)cc5c5c6c(c7cc(F)c[n+]1c7c54)C(=O)NC6=O)[S+]1CC[S+]2CC[S+]3CC1 (centres unmarked) | enzyme activity | 100 nM, human enzyme, together with: 10 µM ATP | baseline: untreated | remaining activity | 54%
COc1ccc(NC(=O)Nc2ccc3c(c2)C(=O)N(C(C)CO)CC(C)C(CN(C)Cc2ccc4c(c2)OCO4)O3)cc1 (centres unmarked) | kinase activity | 0.03 µM | baseline: control | remaining activity | 104%
Cc1ccc(-c2c(/C=C(\C#N)C(=O)NC(C)C)n(CCCO)c3ncnc(N)c23)cc1 | cell-free assay, competition with immobilised ligand | 1 µM | – | remaining binding | 100%
C=CC(=O)N1CCCC(n2c(=O)c3ncccc3n(Cc3ccc(Oc4ccccc4)cc3)c2=O)C1 (centres unmarked) | cell-free assay, competition with immobilised ligand | 1 µM | – | remaining binding | 100%

For quick reference, copied from above:
Structure (SMILES) | test | conditions | how to read | endpoint | value
COc1ccc(NC(=O)Nc2ccc3c(c2)C(=O)N(C(C)CO)CC(C)C(CN(C)Cc2ccc4c(c2)OCO4)O3)cc1 (centres unmarked) | kinase activity | 0.03 µM | baseline: control | remaining activity | 104%
Cc1ccc(-c2c(/C=C(\C#N)C(=O)NC(C)C)n(CCCO)c3ncnc(N)c23)cc1 | cell-free assay, competition with immobilised ligand | 1 µM | – | remaining binding | 100%
C=CC(=O)N1CCCC(n2c(=O)c3ncccc3n(Cc3ccc(Oc4ccccc4)cc3)c2=O)C1 (centres unmarked) | cell-free assay, competition with immobilised ligand | 1 µM | – | remaining binding | 100%
